Published values of several laboratories.
Each numbered part is a random draw from the data of one study; scales do not carry over between parts. Changes are numbered by the printed parent chain.

Set 1 — method: protein-binding microarray; molecule type: double-stranded DNA, one strand shown; sample: in vitro; concentration: 2540 nM top; setting: 60-bp whole probe; with: salmon DNA 0.4 mg/ml; reference: random background probes; reading: higher = stronger binding; shared flanks, not repeated: GCCTAGCAC … GTCTTGATTCGCTTGACGCTGCTG
Target: Interferon regulatory factor 3, full length, phosphomimetic (IRF3, Homo sapiens, UniProt Q14653, residues 1-427, S386D/S396D/S398D/S402D/T404D/S405D)
Chain of UniProt Q14653 (whole entry, unmodified, looked up): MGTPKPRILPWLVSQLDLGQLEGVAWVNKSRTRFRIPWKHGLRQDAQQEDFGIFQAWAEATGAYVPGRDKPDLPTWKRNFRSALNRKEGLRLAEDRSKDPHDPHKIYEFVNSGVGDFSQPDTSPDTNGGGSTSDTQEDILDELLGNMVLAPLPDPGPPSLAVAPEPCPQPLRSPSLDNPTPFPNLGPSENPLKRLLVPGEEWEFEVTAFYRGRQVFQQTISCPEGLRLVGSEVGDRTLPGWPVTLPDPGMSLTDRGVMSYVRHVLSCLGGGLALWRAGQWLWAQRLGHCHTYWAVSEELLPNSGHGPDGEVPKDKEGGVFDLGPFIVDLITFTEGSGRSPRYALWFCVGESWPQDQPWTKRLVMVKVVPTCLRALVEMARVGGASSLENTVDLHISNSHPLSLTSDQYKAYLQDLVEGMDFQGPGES
`GACGACATCAGACTGGAGACGTGCTAG`: “fitted relative affinity” -0.329 z-score.
`TTGGTTCTTATCCTTCCCCTCGTGCTA`: “fitted relative affinity” 0.251 z-score.
For `CTTGCTCTGTGCATAGGTCTGTGCTAG`, “fitted relative affinity” read 0.0421 z-score.
For `TTAGGTAGCGGTATCGGTTAGTGCTAG`, “fitted relative affinity” read 2.07 z-score.
`GTAGGACTGGGTATCGGTTAGTGCTAG`: “fitted relative affinity” 0.186 z-score.
`GAGGGTATCGACACTGGGGACGTGCTA`: “fitted relative affinity” -0.592 z-score.
`GACGGTAGCGGTCTCGGGACGTGCTAG` — result for “fitted relative affinity”: 0.0552 z-score.
For `TACTTTCTGAATGCTCCCCCTGTGCTA`, “fitted relative affinity” read 3.59 z-score.
`TCAAAGCTCCTATCTTATACTGTGCTA`: “fitted relative affinity” 0.746 z-score.
`GTCGATTTCAGTCTCGAGACGTGCTAG`: “fitted relative affinity” 3.6 z-score.
`GACGATCCCAGTATCGAGACGTGCTAG` — result for “fitted relative affinity”: 0.941 z-score.
For `AAAACTCTTTATTTAAGCTCGTGCTAG`, “fitted relative affinity” read 0.286 z-score.
`GACTGACTGCTTATCCTGACGTGCTAG` — result for “fitted relative affinity”: -0.465 z-score.
Under “fitted relative affinity”, `GACGGACTGGACTTTCGGGTCGTGCTA` is recorded as 0.227 z-score.
For `TCATGTCAACTTTCTCTGACTGTGCTA`, “fitted relative affinity” read 0.55 z-score.
For `TTAGCTTTCGACTATCGGTTAGTGCTA`, “fitted relative affinity” read 0.653 z-score.
`GACGGATTCGGTATCGGGACGTGCTAG`: “fitted relative affinity” 3.58 z-score.
For `CTCCCTTTCAGTTTTCCTCTGTGCTAG`, “fitted relative affinity” read 3.3 z-score.

Set 2 — method: aptamer microarray, sandwich; molecule type: DNA with 2'F-ANA; sample: in vitro; concentration: 200 nM; with: Cy3 exosite-II aptamer, 400 nM; reading: higher = stronger binding; sequence: GGTTGGTGTGGTTGG
Target: Prothrombin, mature alpha-thrombin (F2, Homo sapiens, UniProt P00734)
Setting: whole 15-mer aptamer, many near background
Under “mean fluorescence intensity”, `2'F-ANA at 5 6 10 15` is recorded as 54.4 a.u.
Under “mean fluorescence intensity”, `2'F-ANA at 1 2 3 8 10 11 13` is recorded as 63.1 a.u.
Under “mean fluorescence intensity”, `2'F-ANA at 2 6 7 9 10 12` is recorded as 150 a.u.
Under “mean fluorescence intensity”, `2'F-ANA at 1 2 5 7 8 9 10 11 12 13` is recorded as 272 a.u.
`2'F-ANA at 1 4 8 10 11 13 15`: “mean fluorescence intensity” 52.7 a.u.
Under “mean fluorescence intensity”, `2'F-ANA at 2 3 4 6 7 11 12` is recorded as 703 a.u.
Under “mean fluorescence intensity”, `2'F-ANA at 1 4 5 9 11 14 15` is recorded as 53.3 a.u.
For `2'F-ANA at 1 2 3 6 7 8 11 12 13 15`, “mean fluorescence intensity” read 324 a.u.
For `2'F-ANA at 9 10 11 14`, “mean fluorescence intensity” read 107 a.u.
For `2'F-ANA at 1 2 4 14`, “mean fluorescence intensity” read 52 a.u.
`2'F-ANA at 1 2 3 4 5 7 11 12 13 15` — result for “mean fluorescence intensity”: 72.8 a.u.
`2'F-ANA at 1 3 4 9 10 12 13 15`: “mean fluorescence intensity” 74.6 a.u.
Under “mean fluorescence intensity”, `2'F-ANA at 3 5 7 11 12 13` is recorded as 199 a.u.
`2'F-ANA at 3 7 9 10 12 13 14 15` — result for “mean fluorescence intensity”: 403 a.u.
For `2'F-ANA at 1 3 4 5 15`, “mean fluorescence intensity” read 58.7 a.u.
`2'F-ANA at 1 2 3 5 6 7 8 9 10 11 15` — result for “mean fluorescence intensity”: 72.3 a.u.
For `2'F-ANA at 1 4 7 8 9 11 14 15`, “mean fluorescence intensity” read 79.9 a.u.
`2'F-ANA at 2 3 5 8 9 11 13 14` — result for “mean fluorescence intensity”: 56.2 a.u.
For `2'F-ANA at 2 9 12 13 15`, “mean fluorescence intensity” read 569 a.u.

Set 3 — method: DHFR PCA, deep sequencing; sample: yeast; with: (+)-ABA 1.4 µM; reference: wild-type fitted maximum; reading: higher = stronger binding
Target: ABI1, truncated, D143A, DHFR fusion (Arabidopsis thaliana)
Setting: methotrexate growth selection, single substitutions
Starting sequence: PYL1, truncated, DHFR fusion (Arabidopsis thaliana); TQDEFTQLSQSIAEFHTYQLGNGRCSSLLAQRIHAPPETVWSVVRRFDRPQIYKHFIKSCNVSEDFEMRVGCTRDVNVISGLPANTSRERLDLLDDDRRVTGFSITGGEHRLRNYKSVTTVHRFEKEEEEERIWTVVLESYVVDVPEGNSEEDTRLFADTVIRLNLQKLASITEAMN
Under “relative binding score”, `E152L` is recorded as 17%.
Under “relative binding score”, `E127K` is recorded as 74.2%.
For `T73F`, “relative binding score” read 69.3%.
Under “relative binding score”, `T106C` is recorded as 38.5%.
`S150G` — result for “relative binding score”: 9.5%.
`E131M`: “relative binding score” 62.8%.
`T6H` — result for “relative binding score”: 60.2%.
`E14D` — result for “relative binding score”: 30.1%.
For `I172M`, “relative binding score” read 15.5%.
Under “relative binding score”, `C72Y` is recorded as 26.3%.
Under “relative binding score”, `E109S` is recorded as 41.9%.
`Y53W`: “relative binding score” 52.6%.
`V143P`: “relative binding score” -4.59%.
Under “relative binding score”, `V161Y` is recorded as 5.96%.
`A170K`: “relative binding score” 66.4%.
Under “relative binding score”, `Y18H` is recorded as 63.1%.
`K54D`: “relative binding score” -5.19%.
For `S9D`, “relative binding score” read 47%.
Under “relative binding score”, `R24Y` is recorded as 2.98%.
`H122M`: “relative binding score” 1.1%.
`L8A` — result for “relative binding score”: 13.7%.

Set 4 — method: protein binding microarray; molecule type: double-stranded DNA, one strand shown; sample: in vitro; concentration: not given; reference: not given; reading: higher = stronger binding
Target: Histone acetyltransferase KAT6A, both winged helices, GST fusion (KAT6A, Homo sapiens, UniProt Q92794, residues 1-181)
Setting: 8-mer, flanks averaged, mean of 2 arrays, mostly near background
Construct (chain): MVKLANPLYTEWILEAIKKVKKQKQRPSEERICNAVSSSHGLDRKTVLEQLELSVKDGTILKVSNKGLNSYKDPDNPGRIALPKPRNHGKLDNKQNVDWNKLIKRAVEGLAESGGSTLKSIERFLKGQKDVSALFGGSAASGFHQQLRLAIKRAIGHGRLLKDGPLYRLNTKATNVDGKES
With `CACGAATC` the E-score was 0.00258.
`CCGTTTGA` has an E-score of 0.213.
For `ACGAGGAT`, the E-score was -0.205.
`AAGCCACG` gave an E-score of 0.0425.
With `AGATCTGG` the E-score was -0.149.
The E-score of `ACAATAGC` is reported as -0.0221.
The E-score of `GCCTTTCA` is reported as 0.0758.
With `CTAAGGCA` the E-score was 0.00412.
For `AGAAGGAA`, the E-score was 0.108.
`ATTCCCCG` has an E-score of 0.2.
With `CGCTACCA` the E-score was 0.17.
The E-score of `ATATTTTA` is reported as -0.132.
The E-score of `GGTAAAAC` is reported as 0.0209.
The E-score of `CTGCGTCA` is reported as 0.107.
For `ATTGGGAG`, the E-score was -0.219.
The E-score of `CCCAGGTC` is reported as -0.113.
`GGCGGGTA` has an E-score of 0.199.
`CATTAATG` gave an E-score of -0.0802.
The E-score of `AAGTGTGC` is reported as -0.104.
The E-score of `CGGTTATC` is reported as 0.243.
`CTCGGCCC` has an E-score of 0.148.
The E-score of `AGAGGACG` is reported as -0.0492.
`TGAGGACA` gave an E-score of -0.256.
`GAGACATC` gave an E-score of -0.121.
The E-score of `GAATACAA` is reported as 0.003.

Set 5 — target: CCNB1, cyclin fold, Cln2 fusion (human); method: yeast growth competition, sequencing; sample: yeast; setting: weak parent motif; reference: not given; reading: higher = stronger binding
Starting sequence: NPAT docking peptide (human); PCHRRVLCFDSTT
`PCHRAVACFDSTT [R5A L7A]` — result for “normalised enrichment score”: 0.436.
For `PCHRRVLCFDSTA [T13A]`, “normalised enrichment score” read -0.0323.
`PCHRKVLCFDSTT [R5K]` — result for “normalised enrichment score”: 0.347.
For `PCHRRVLCADSTT [F9A]`, “normalised enrichment score” read 0.23.
`PCHRRVACFDSTT [L7A]`: “normalised enrichment score” 0.608.
`PCHRAVLCFDSTT [R5A]`: “normalised enrichment score” 0.125.
`PCARRVLCFDSTT [H3A]` — result for “normalised enrichment score”: 0.521.
`PCHRRVLCLDSTT [F9L]` — result for “normalised enrichment score”: -0.144.
For `ACHRRVLCFDSTT [P1A]`, “normalised enrichment score” read 0.294.
For `PAHRRVLCFDSTT [C2A]`, “normalised enrichment score” read 0.558.

Set 6 — target: ATF5, bZIP domain (human); method: DHFR protein complementation; sample: yeast; reference: wild-type JUN-FOS pair; reading: higher = stronger binding
Setting: single substitutions, most at no-binding floor
Starting sequence: JUN, bZIP domain (human); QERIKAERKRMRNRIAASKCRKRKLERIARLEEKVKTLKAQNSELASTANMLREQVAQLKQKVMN; partner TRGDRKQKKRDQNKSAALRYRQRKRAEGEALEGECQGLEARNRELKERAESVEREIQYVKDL
For `I28S`, the binding fitness was -1.48 natural log.
The binding fitness of `S47Q` is reported as -1.49 natural log.
`A49G` has a binding fitness of -1.47 natural log.
The binding fitness of `E54M` is reported as -1.49 natural log.
For `K39F`, the binding fitness was -1.48 natural log.
The binding fitness of `A57M` is reported as -1.48 natural log.
The binding fitness of `A40Q` is reported as -1.21 natural log.
For `Q55R`, the binding fitness was -1.33 natural log.
For `E44P`, the binding fitness was -1.57 natural log.
With `L59G` the binding fitness was -1.51 natural log.
For `R53W`, the binding fitness was -1.47 natural log.
The binding fitness of `A29F` is reported as -1.46 natural log.
`K39S` has a binding fitness of -1.5 natural log.
`T37M` gave a binding fitness of -1.56 natural log.
`Q55D` has a binding fitness of -1.47 natural log.
With `E54L` the binding fitness was -1.32 natural log.
With `M51A` the binding fitness was -1.49 natural log.
For `A40H`, the binding fitness was -1.37 natural log.
The binding fitness of `K34S` is reported as -1.55 natural log.
For `V35T`, the binding fitness was -1.43 natural log.
The binding fitness of `A46F` is reported as -1.58 natural log.
The binding fitness of `S43G` is reported as -1.4 natural log.
`R30Q` has a binding fitness of -1.53 natural log.
`Q41W` has a binding fitness of -1.49 natural log.
With `N42C` the binding fitness was -1.34 natural log.

A few entries again (set 2):
Under “mean fluorescence intensity”, `2'F-ANA at 2 6 7 9 10 12` is recorded as 150 a.u.
Under “mean fluorescence intensity”, `2'F-ANA at 1 2 3 8 10 11 13` is recorded as 63.1 a.u.
For `2'F-ANA at 2 9 12 13 15`, “mean fluorescence intensity” read 569 a.u.
Under “mean fluorescence intensity”, `2'F-ANA at 5 6 10 15` is recorded as 54.4 a.u.
Under “mean fluorescence intensity”, `2'F-ANA at 1 2 5 7 8 9 10 11 12 13` is recorded as 272 a.u.
`2'F-ANA at 1 2 3 5 6 7 8 9 10 11 15` — result for “mean fluorescence intensity”: 72.3 a.u.
Under “mean fluorescence intensity”, `2'F-ANA at 3 5 7 11 12 13` is recorded as 199 a.u.
`2'F-ANA at 2 3 5 8 9 11 13 14` — result for “mean fluorescence intensity”: 56.2 a.u.
`2'F-ANA at 1 2 3 4 5 7 11 12 13 15` — result for “mean fluorescence intensity”: 72.8 a.u.
Under “mean fluorescence intensity”, `2'F-ANA at 2 3 4 6 7 11 12` is recorded as 703 a.u.
For `2'F-ANA at 1 2 4 14`, “mean fluorescence intensity” read 52 a.u.
`2'F-ANA at 3 7 9 10 12 13 14 15` — result for “mean fluorescence intensity”: 403 a.u.
For `2'F-ANA at 1 2 3 6 7 8 11 12 13 15`, “mean fluorescence intensity” read 324 a.u.
For `2'F-ANA at 1 4 7 8 9 11 14 15`, “mean fluorescence intensity” read 79.9 a.u.
`2'F-ANA at 1 4 8 10 11 13 15`: “mean fluorescence intensity” 52.7 a.u.
`2'F-ANA at 1 3 4 9 10 12 13 15`: “mean fluorescence intensity” 74.6 a.u.
For `2'F-ANA at 1 3 4 5 15`, “mean fluorescence intensity” read 58.7 a.u.
For `2'F-ANA at 9 10 11 14`, “mean fluorescence intensity” read 107 a.u.
